# Experimental data of several laboratories.
# Numbers after ± are the reported error.
Structure (SMILES),cell line,test,setting,scale,quantity,value
O=C1c2cccc3cccc(c23)C12NC(Cc1ccc(O)cc1)C([N+](=O)[O-])C2c1ccccc1 (stereo not shown),Jurkat,annexin V-FITC/PI flow cytometry,"IC50, 24 h",,necrotic cells,6%
FC(F)(F)c1ccnc(-c2cc(C(F)(F)F)ccn2)c1.FC(F)(F)c1ccnc(-c2cc(C(F)(F)F)ccn2)c1.[Cl-].[Cl-].[Ru+2].c1csc(-c2nc3c4cccnc4c4ncccc4c3[nH]2)c1,SK-MEL-28,cell viability,"100 J/cm2 light, normoxia, together with: visible light 400-700 nm",baseline: dark over light EC50,phototherapeutic index,11
CC(C)c1cccc(C(C)C)c1-n1ccn(-c2c(C(C)C)cccc2C(C)C)c1=[Se].[Cl][Au],LoVo-OXP colon cancer cells,MTT,,baseline: LoVo-OXP over LoVo IC50,resistance factor,1.1
CCN(CC)CC(=O)Nc1cccc(-n2cc(-c3ccc4ccc(-c5cn(-c6cccc(NC(=O)CN(CC)CC)c6)nn5)cc4c3)nn2)c1,RCC4,"qRT-PCR, measured: HIF-1α","5 x IC50, 4 h",baseline: untreated,mRNA level,4%
COc1ccc([C@@H]2CC(=O)c3c(O)cc(O[C@@H]4O[C@H](CO[C@@H]5O[C@@H](C)[C@H](O)[C@@H](O)[C@H]5O)[C@@H](O[C@H]5O[C@H](CO)[C@@H](O)[C@H](O)[C@H]5O)[C@H](O)[C@H]4O)cc3O2)cc1O,A549,"cell growth or viability, MTS","100 µg/mL, 72 h",,viability,44.1%
C(=C/c1ccccc1)/c1ccccc1,Jurkat,"cell proliferation, ATP luminescence",24 h,baseline: vehicle,lowest effective concentration,2 µM
CC[C@H](C)[C@@H]1NC(=O)[C@H](Cc2cn(CCc3c(C)[nH]c4cc(Cl)cc(Cl)c34)nn2)NC(=O)[C@@H](CC(N)=O)NC(=O)[C@H](CCCNC(=N)N)NC(=O)[C@H](Cc2ccccc2)NC(=O)[C@@H](CC(C)C)NC(=O)[C@H](C)NC(=O)c2cc3cc(c2)C(=O)NC[C@@H](C(=O)N[C@@H](CCCCN)C(N)=O)NC(=O)[C@H](CCCNC(=N)N)NC(=O)[C@H](CCCNC(=N)N)NC(=O)[C@H](CCCNC(=N)N)NC(=O)[C@H](CCCNC(=N)N)NC(=O)[C@H](Cc2ccc4ccccc4c2)NC(=O)[C@H](Cc2ccccc2)NC(=O)[C@H](CCCCNC3=O)NC(=O)[C@H](CC(=O)O)NC1=O,H1299,immunoblot,"concentration not given, 12 h",,Akt protein level,no effect
Cc1nn(-c2ccc(S(=O)(=O)N[C@H](CO)CC(C)C)cc2)c2nn3nnnc3nc12,HT-29,AO/EB staining,"1 µM, 24 h",,apoptotic cells,23 ± 2.82%
COc1cc(CNC(=O)C[C@H](C)CCC=C(C)C)ccc1OCc1cn(-c2ccc(Cl)c(Cl)c2)nn1,BT-549 breast cancer cells,SRB,"10 µM, 48 h",,growth percent,71.7%
CC/C=C\C/C=C\C/C=C\C/C=C\C/C=C\C/C=C\CCC(=O)Nc1ccn(C2OC(CO)C(O)C2(F)F)c(=O)n1 (stereo not shown),Panc02,,"10 µM, 4 h",baseline: gemcitabine,cellular uptake,~10 fold
Cc1ccc(C(C)C)cc1.O=C(N=P(c1ccccc1)(c1ccccc1)c1ccccc1)c1ccccn1.[Cl-].[Cl-].[Ru+2],Jurkat,flow cytometry,concentration not given,,cells with ΔΨm loss,80%
CC1=CC(C)=[N+]2C1=C(CCCC(=O)NCCCCCC(=O)NCCCC[C@H](NC(=O)N[C@@H](CCC(=O)O)C(=O)O)C(=O)O)c1c(C)cc(C)n1[B-]2(F)[18F] (stereo partly shown),LNCaP,PSMA-mediated internalization,"60 min, together with: 2-PMPA blocking",,internalized fraction,3.3%
CCCCCCCCN(CCC(=O)Nc1ccccc1)C(=O)c1ccccn1,progeroid mouse fibroblasts,"immunoblot, measured: phospho-histone H2AX","2 µM, 14 d",,phospho-H2AX level,decreased
O=C(O)c1ccc(/C=C2\SC(=S)N(Cc3cccc(C(F)(F)F)c3)C2=O)cc1,LPS-primed human PBMC,,"concentration not given, together with: nigericin",,TNF-α production,no effect
N#Cc1cccc(/C=C/C(=O)c2ccc(O)cc2)c1,D54 and U-87 MG,cell viability,72 h,,lowest effective concentration,> 1 µM
Cc1ccc(/C=N/N=C(\S)Nc2cccc(S(=O)(=O)N(C)C)c2)o1,LDR,"silenced GFP reporter derepression, microscopy",overnight,baseline: sodium butyrate,Emax,34%
COc1cc(CNC(=O)C[C@H](C)CCC=C(C)C)ccc1OCc1cn(-c2ccc(Br)cc2)nn1,SNB-19 CNS cancer cells,SRB,"10 µM, 48 h",,growth percent,57.7%
CC(=O)OC[C@H]1O[C@@H](Sc2sc(C(=O)c3ccc(Br)cc3)c(N)c2-c2nc3ccccc3s2)[C@H](OC(C)=O)[C@@H](OC(C)=O)[C@H]1OC(C)=O,SNB-19,SRB,"10 µM, 48 h",baseline: untreated,growth,87.3%
C=CC(=O)Oc1ccc(Cl)cc1C(=O)Nc1ccc([N+](=O)[O-])cc1Cl,"293 cells expressing AR-V7, HSP70 and Flag-STUB1",dual immunofluorescence,1 µM,,AR-V7 and STUB1 co-localization,increased
COc1cc(CNC(=O)C[C@H](C)CCC=C(C)C)ccc1O,OVCAR-5 ovarian cancer cells,SRB,"10 µM, 48 h",,growth percent,93.3%
COc1cccc2c(NCc3ccccc3)nc(NCc3cccs3)nc12,SW-403,cell growth or viability,24 h,,GI50,0.5 µM
Cc1noc(NS(=O)(=O)c2ccc(NC(=O)c3ccnc(-c4cccc(Br)c4)c3)cc2)c1C,mouse spleen cells,"cell proliferation, MTT","10 µM, 72 h, together with: concanavalin A 5 µg/mL",,inhibition,22.7 ± 7.06%
CCCC(CCC)C(=O)[O][Pt]([NH2])([NH2])([Cl])([Cl])[O]C(=O)C(Cl)Cl,LoVo oxaliplatin-resistant,MTT,,baseline: LoVo OXP over LoVo,resistance factor,< 2
CCCCN1C(=O)c2cccc3c(NCCCCCCCCCCN4CCOCC4)ccc(c23)C1=O,BHK-21,"lysosome colocalization, confocal microscopy","0.2 µM, together with: LysoTracker Deep Red 0.3 µM",,Pearson correlation coefficient,0.87 ± 0.04
Oc1ccccc1-c1nn(-c2ccccn2)[n+](-c2ccccc2)n1.[Br-],A2780,"labile iron pool, calcein-AM","40 µM, 24 h",,calcein fluorescence increase,~68%
COc1cc(CNC(=O)C[C@H](C)CCC=C(C)C)ccc1OCc1cn(-c2cccc(C(F)(F)F)c2)nn1,BT-549 breast cancer cells,SRB,"10 µM, 48 h",,growth percent,92.3%
CC(=C(c1ccc(Cl)cc1)c1ccc(OCCN2CCCCC2)cc1)c1ccc(Cl)cc1,60 NCI tumour cell lines,NCI one-dose screen,10 µM,,mean growth inhibition,no inhibition
COc1cc(CNC(=O)C[C@H](C)CCC=C(C)C)ccc1OCc1cn(-c2cccc(Cl)c2)nn1,BT-549 breast cancer cells,SRB,"10 µM, 48 h",,growth percent,66.4%
COc1cc([C@@H]2c3cc4c(cc3C=C(C=O)[C@H]2C(=O)N2CCCC2)OCO4)cc(OC)c1OC,uninfected mouse splenocytes,,,baseline: splenocyte CC50 over amastigote EC50,selectivity index,< 0.8
CCCCCCCCCCCCCC(=O)N1CCC[C@H]1C(=O)N[C@@H](CO)C(=O)N[C@@H](CCC(N)=O)C(=O)N[C@@H](CO)C(=O)N[C@@H](CCCCNC(=O)c1ccc(Br)cc1)C(=O)N[C@@H](CO)C(=O)N[C@@H](CCCCNC(=O)c1ccc(Br)cc1)C(=O)N[C@@H](C)C(=O)O,AsPC-1,annexin V/PI,"200 µM, 48 h",,apoptotic cells,65%
Nc1cccc(S(=O)(=O)N2CCCN(S(=O)(=O)c3ccc4c(c3)OCCO4)CC2)c1,H1299,14C-glucose,"30 µM, 2 h",,glucose carbon into lipids,decreased
CCOP(=O)(CC(=O)Nc1ccc(S(=O)(=O)N(CC(N)=O)c2ccc(N(CC(N)=O)S(=O)(=O)c3ccc(OC)cc3)c3ccccc23)cc1)OCC,mouse primary cortical neurons,"western blot, measured: BACE1","20 µM, together with: amyloid beta",,protein level,decreased
CC(C)(C)c1nc(-c2cccc(NS(=O)(=O)c3c(F)cccc3F)c2F)c(-c2ccnc(N)n2)s1.Cc1[nH]c2ccccc2c1CCNCc1ccc(/C=C/C(=O)NO)cc1,SK-MEL-28,flow cytometry,"concentration not given, 48 h, concentration about IC50",,cells in S phase,1.38%
C#CCN(CC(=O)O[C@H]1[C@H](C)O[C@@H](O[C@H]2[C@H](N(C)C)[C@@H](O)[C@H](O[C@H]3[C@@H](CC=O)C[C@@H](C)[C@@H](O[C@H]4CC[C@H](N(C)C)[C@@H](C)O4)/C=C/C=C/C[C@@H](C)OC(=O)C[C@@H](O)[C@@H]3OC)O[C@@H]2C)C[C@@]1(C)O)C(=O)c1ccc(C(F)(F)F)cc1,HGC-27,PI flow cytometry,"0.10, 0.45, 0.90 µM, 48 h",,G0/G1 and G2/M phase cells,decreased
CCCCCCCCCCCCCCOc1c(O)cc(C(=O)O[C@@H]2Cc3c(O)cc(O)cc3O[C@@H]2c2cc(O)c(O)c(O)c2)cc1O,A-431,"ERK phosphorylation, Western blot, measured: phospho-ERK","25 µM, 24 h",,inhibition,> 90%
Cc1c2ccnc(C(=O)N[C@H](C)CN(C)C)c2cc2c3cc(OCCCN4CCN(C)CC4)ccc3n(C)c12,C9orf72 ALS iPSCs,qRT-PCR,"0.05 µM, together with: control siRNA",baseline: vehicle,C9orf72 intron reduction,42 ± 5%
COc1ccc(NC(=O)CSc2nc3c(oc4ccccc43)c(=O)n2Cc2ccco2)cc1Cl,LDR,"silenced GFP reporter derepression, microscopy",overnight,baseline: sodium butyrate,Emax,37%
COC[C@H](NC(=O)[C@H](CC1CCCCC1)NC(=O)CN1CCOCC1)C(=O)N[C@H](/C=C/S(C)(=O)=O)CC(C)C,"HFF, non-confluent","cell viability, CellTiter-Blue",72 h,,EC50,78.4 ± 18 µM
N#Cc1cc(C(=O)OCC[18F])c(C(F)(F)F)nc1N1CCN(C(=O)Cc2ccccc2)CC1,C6 P2Y12-positive,,together with: excess clopidogrel,baseline: unblocked,cellular uptake,decreased
COc1cccc2c(NCc3ccccc3)nc(Nc3cccc(Cl)c3)nc12,SW-403,cell growth or viability,72 h,,GI50,11 µM
O=Cc1c(O)ccc2ccccc12,HUVEC,"RNA sequencing, measured: PAPPA2","75 µM, 24 h",baseline: DMSO,log2 fold change,2.59
COc1ccc(CC2COC(=O)C2Cc2ccc3c(c2)OCO3)cc1OC (mixture of isomers),A2780,MTT,"concentration not given, 72 h",,viability,decreased
COc1cc(CNC(=O)C[C@H](C)CCC=C(C)C)ccc1OCc1cn(-c2cccc([N+](=O)[O-])c2)nn1,OVCAR-5 ovarian cancer cells,SRB,"10 µM, 48 h",,growth percent,98%
C[N+]1(CC(=O)OC2CCCCCCCCCCC2)CCCCC1,LNCaP,"cell viability, CellTiter-Blue",96 h,,ED50,5.8 µM
COc1ccc([C@@H]2CC(=O)c3c(O)cc(O[C@@H]4O[C@H](CO[C@@H]5O[C@@H](C)[C@H](O)[C@@H](O)[C@H]5O)[C@@H](O)[C@H](O)[C@H]4O)cc3O2)cc1O,A549,Matrigel Transwell invasion,"150 µg/mL, 48 h",,invasion,33.9 ± 4.82%
COc1ccc2c(C)nc(Nc3nc(O)cc(-c4ccccc4)n3)nc2c1,LDR,"silenced GFP reporter derepression, microscopy",overnight,baseline: sodium butyrate,Emax,100%
CC(C)=CCC1=C([O-])C(=O)c2ccccc2C1=O.O.O=[N+]([O-])[O-].[Cu+2].c1ccc(-c2cccc(-c3ccccn3)n2)nc1,MRC5 and A2780,MTT,24 h,baseline: IC50 MRC5 over IC50 A2780,selectivity index,6.2
Oc1c(/N=N/c2ccccn2)ccc2ccccc12,LDR,"silenced GFP reporter derepression, microscopy",overnight,baseline: sodium butyrate,Emax,75%
COc1cc(CNC(=O)C[C@H](C)CCC=C(C)C)ccc1OCc1cn(-c2ccccc2Cl)nn1,SNB-19 CNS cancer cells,SRB,"10 µM, 48 h",,growth percent,61.3%
O=C1OCC2=C1C(c1cccc(Br)c1)C1=C(N2)C(=O)c2ccccc2C1=O (stereo not shown),SK-LU-1 cells,PI flow cytometry,"0.08 µM, 24 h",,cells in S phase,30.8%
COc1cc(CNC(=O)C[C@H](C)CCC=C(C)C)ccc1OCc1cn(-c2ccc([N+](=O)[O-])cc2)nn1,M14 melanoma cells,SRB,"10 µM, 48 h",,growth percent,88.8%
CC1=CCC23OC2(C)CCC2C(CN(C)C)C(=O)OC2C13.Cl (stereo not shown),C6 rat glioma cells,,"2 mg/mL, clonogenic",baseline: control,proliferation,17.1 ± 2.06%
